Published values collected from several papers.
Lines come from different studies, so protocols differ. Numbers after ± are the reported error.

CC(C)c1nc(N(C)S(C)(=O)=O)nc(-c2ccc(F)cc2)c1/C=C/[C@@H](O)C[C@@H](O)CC(=O)O
clearance (population pharmacokinetic model; people living with HIV; oral, bootstrap median): 122 L/h

C[C@H]1Oc2cc(cnc2N)-c2c(nn(C)c2C#N)CN(C)C(=O)c2ccc(F)cc21
clearance (population PK; patients with mild hepatic impairment (NCI sample B), plasma; oral, 100 mg, median, single dose): 7.95 L/h

O=C(O)c1cc(O)c(O)c(O)c1
clearance (chicken Ross broiler, male; intravenous, 0.49 mg/kg): 22.3 ± 7.5 mL/min/kg

CC[C@H](C)CCCCC(=O)N[C@@H](CCN)C(=O)N[C@H](C(=O)N[C@@H](CCN)C(=O)N[C@H]1CCNC(=O)[C@H]([C@@H](C)O)NC(=O)[C@H](CCN)NC(=O)[C@H](CCN)NC(=O)[C@H](CC(C)C)NC(=O)[C@@H](Cc2ccccc2)NC(=O)[C@H](CCN)NC1=O)[C@@H](C)O
clearance (ESKD on long-term intermittent haemodialysis; intravenous infusion, 0.75 mg/kg single dose over 1 h, arithmetic mean): 1.5 L/h

Cn1cncc1-c1c(F)cncc1NC(=O)c1c(N)nn2cc(F)cnc12
clearance change rate KCL (population PK model; patients with solid tumours, plasma; oral, dose not given): 0.0878 h⁻¹

CC(C)C[C@H](NC(=O)[C@H](CCc1ccccc1)NC(=O)CN1CCOCC1)C(=O)N[C@@H](Cc1ccccc1)C(=O)N[C@@H](CC(C)C)C(=O)[C@@]1(C)CO1
clearance (population PK, two-compartment model; adult relapsed/refractory DLBCL patients, plasma; intravenous infusion, dose not given, together with: R-ICE): 133 L/h

NC(=O)CC[C@@H]1NC(=O)[C@H](Cc2ccccc2)NC(=O)[C@H](Cc2ccc(O)cc2)NC(=O)CCSSC[C@@H](C(=O)N2CCC[C@H]2C(=O)N[C@H](CCCN=C(N)N)C(=O)NCC(N)=O)NC(=O)[C@H](CC(N)=O)NC1=O
clearance (mild haemophilia A patients and carriers, plasma; intravenous infusion over 30 min, 0.3 µg/kg, mean, noncompartmental): 7.8 L/h

CN[C@H]1C(=O)N[C@@H]2Cc3ccc(cc3)Oc3cc4cc(c3O[C@@H]3O[C@H](C(=O)O)[C@@H](O)[C@H](O)[C@H]3NC(=O)CCCCCCCCC(C)C)Oc3ccc(cc3Cl)[C@@H](O)[C@@H]3NC(=O)[C@H](NC(=O)[C@@H]4NC(=O)[C@@H](NC2=O)c2cc(cc(O)c2Cl)Oc2cc1ccc2O)c1ccc(O)c(c1)-c1c(O[C@H]2O[C@H](CO)[C@@H](O)[C@H](O)[C@@H]2O)cc(O)cc1[C@@H](C(=O)NCCCN(C)C)NC3=O
clearance (population PK model; paediatric patients; reference weight 70 kg): 0.0578 L/h

C[C@@H]1CCC[C@H](n2cnc(-c3cc(Cl)ccc3-n3cc(Cl)nn3)cc2=O)c2cc(ccn2)-c2c(cnn2C(F)F)NC1=O
clearance (rabbit, male; intravenous, 0.8 mg/kg): 6.7 ± 0.8 mL/min/kg

Repeated from above:
NC(=O)CC[C@@H]1NC(=O)[C@H](Cc2ccccc2)NC(=O)[C@H](Cc2ccc(O)cc2)NC(=O)CCSSC[C@@H](C(=O)N2CCC[C@H]2C(=O)N[C@H](CCCN=C(N)N)C(=O)NCC(N)=O)NC(=O)[C@H](CC(N)=O)NC1=O
clearance (mild haemophilia A patients and carriers, plasma; intravenous infusion over 30 min, 0.3 µg/kg, mean, noncompartmental): 7.8 L/h
